Results collected from several papers.
Every numbered part comes from another study and shows a few of its results, in no order.

Set 1 — method: protein binding microarray; form: double-stranded DNA, one strand shown; matrix: in vitro; tested at: not given; baseline: not given; reading: higher = stronger binding
Target: Histone acetyltransferase KAT6A, winged helix 2, GST fusion (KAT6A, Homo sapiens, UniProt Q92794, residues 85-181)
Notes: 8-mer, flanks averaged, mean of 2 arrays, mostly near background
Construct (chain): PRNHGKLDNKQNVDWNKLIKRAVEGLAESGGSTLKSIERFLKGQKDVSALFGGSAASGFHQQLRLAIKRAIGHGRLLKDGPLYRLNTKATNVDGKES
Strand	E-score
ACTATAAA	-0.0695
AATACTCT	0.022
ACTATCTG	-0.0596
CCTGTCCG	0.106
CGTCCTAG	-0.131

Set 2 — method: RNAcompete; form: RNA; matrix: in vitro; tested at: 20 nM; notes: 7-mer, probes averaged, single round; baseline: mean of 7-mers; reading: higher = stronger binding
Target: PABPC1L2, full length, GST fusion (mouse, UniProt A0ABA7IW68)
Target sequence (chain): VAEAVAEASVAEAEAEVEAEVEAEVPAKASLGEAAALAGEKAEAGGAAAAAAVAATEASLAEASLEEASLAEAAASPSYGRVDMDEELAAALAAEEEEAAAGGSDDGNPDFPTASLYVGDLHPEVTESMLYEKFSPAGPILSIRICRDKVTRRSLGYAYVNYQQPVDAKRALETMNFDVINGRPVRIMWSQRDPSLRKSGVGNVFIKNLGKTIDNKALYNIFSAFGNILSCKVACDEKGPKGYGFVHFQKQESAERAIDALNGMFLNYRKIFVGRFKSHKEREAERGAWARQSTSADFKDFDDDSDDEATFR
Strand	7-mer Z-score
ACCACUA	-0.146
CUUCACG	-0.315
UCCUAGA	-0.0917
CGCAGGA	0.225
CUGGAGG	0.124

Set 3 — method: universal PBM; form: double-stranded DNA, one strand shown; matrix: in vitro; tested at: not given; reading: higher = stronger binding
Target: Sal-like protein 4, full length isoform B (SALL4, Homo sapiens, UniProt Q9UJQ4-2, residues 1-616)
Notes: 8-mer, flanks averaged, mean of replicates
Construct (chain): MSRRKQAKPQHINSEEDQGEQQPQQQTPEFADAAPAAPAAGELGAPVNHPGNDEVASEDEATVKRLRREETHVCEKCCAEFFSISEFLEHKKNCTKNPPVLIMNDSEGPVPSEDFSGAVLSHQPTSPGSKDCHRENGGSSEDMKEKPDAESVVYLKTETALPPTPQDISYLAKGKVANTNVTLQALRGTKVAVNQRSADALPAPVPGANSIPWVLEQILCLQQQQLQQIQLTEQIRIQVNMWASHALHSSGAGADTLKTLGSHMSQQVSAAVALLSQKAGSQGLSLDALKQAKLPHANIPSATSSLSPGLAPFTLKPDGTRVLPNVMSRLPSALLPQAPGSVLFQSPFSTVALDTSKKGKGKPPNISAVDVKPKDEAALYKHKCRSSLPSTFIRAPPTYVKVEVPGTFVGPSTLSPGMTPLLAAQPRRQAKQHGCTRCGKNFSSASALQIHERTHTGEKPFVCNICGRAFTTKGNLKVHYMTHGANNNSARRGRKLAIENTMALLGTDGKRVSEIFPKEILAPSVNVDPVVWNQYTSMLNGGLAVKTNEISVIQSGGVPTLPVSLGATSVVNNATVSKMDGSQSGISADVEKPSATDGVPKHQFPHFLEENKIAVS
Strand	E-score
CATACTGC	-0.0904
ATTCCTGG	-0.0587
GACAAGCA	-0.0745
ACAATGGG	0.014

Further values, each from its own experiment
Substance	target	assay	test system	setting	how to read	measurement	value
PhoQ, residues 284 288 289 292 302 303 TLASMF	PhoP, residues 12 14 15 18 19 AGCRL (Escherichia coli, UniProt P23836)	Sort-seq, measured: YFP reporter	E. coli	PhoQ-PhoP variant library, together with: 10 µM Mg2+	baseline: high Mg2+ state, higher = stronger signaling	fold induction	1.66

Some of these lines once more (set 1):
Strand	E-score
CCTGTCCG	0.106
CGTCCTAG	-0.131
